{"data": "Measurements pooled from the literature", "note": "Each numbered part is a random draw from the data of one study; scales do not carry over between parts. pIC50: −log10 of the molar value."}
{"data": "Sample 1", "target": "crk3 (Leishmania mexicana, UniProt O15851)", "read-out": "enzyme activity", "mode": "inhibitor", "technique": "radiometric"}
{"SMILES": "O=C(Nc1nc2ccc(-c3ccc(O)cc3)cn2n1)C1CCCCC1", "pIC50": 6.92}
{"SMILES": "Cc1cccc(-c2ccc3nc(NC(=O)C4CCOCC4)nn3c2)c1", "pIC50": 5.00}
{"SMILES": "Cc1cccc(C)c1-c1ccc2nc(NC(=O)C3CCCCC3)nn2c1", "pIC50": 4.72}
{"SMILES": "Cc1cccc(-c2ccc3nc(NC(=O)C4CCCO4)nn3c2)c1 (stereo not shown)", "pIC50": 4.92}
{"data": "Sample 2", "host": "mouse, PTZ-induced seizures", "route": "oral", "dose": "20 mg/kg", "time": "0.5 h", "together with": "PTZ 85 mg/kg i.p."}
{"Compound": "O=C(O)COc1ccc(Br)cc1/C=N/NC(=O)CNc1ccccc1", "seizure protection": "50%"}
{"Compound": "O=C(O)COc1ccccc1/C=N/NC(=O)CNc1ccc(Cl)cc1", "seizure protection": "80%"}
{"Compound": "O=C(O)COc1ccc(Br)cc1/C=N/NC(=O)c1ccc(Cl)cc1", "seizure protection": "90%"}
{"Compound": "Cc1ccc(C(=O)N/N=C/c2cc(Br)ccc2OCC(=O)O)cc1", "seizure protection": "80%"}
{"Compound": "Cc1ccc(NCC(=O)N/N=C/c2cc(Br)ccc2OCC(=O)O)cc1", "seizure protection": "40%"}
{"data": "Sample 3", "target": "Cellular tumor antigen p53, DNA-binding domain (TP53, Homo sapiens, UniProt P04637, M133L/N239Y/N268D/V203A/Y220C)", "technique": "differential scanning fluorimetry", "concentration": "250 µM", "time": "24 h"}
{"SMILES": "Cc1nc(C#N)cnc1Cl", "ΔTm": "4.45 °C"}
{"SMILES": "CCOC(=O)c1cc(C#N)c(Cl)nc1Cl", "ΔTm": "2.57 °C"}
{"SMILES": "Cc1nc(Cl)cnc1C#N", "ΔTm": "1.1 °C"}
{"data": "Further values, each from its own experiment"}
{"Structure (SMILES)": "FC(F)(F)c1c(-c2ccc(N3CCNCC3)c(Cl)c2)ccn2c(CC3CC3)nnc12", "test system": "human liver microsomes", "conditions": "5 µM, 15 min", "quantity": "compound metabolized", "value": "8%"}
{"Structure (SMILES)": "CCCCn1ccn2c(-c3ccc(NC4CCOCC4)c(Cl)c3)c(C)nc2c1=O", "test system": "human liver microsomes", "conditions": "5 µM, 15 min", "quantity": "metabolized fraction", "value": "23%"}
{"Structure (SMILES)": "FC(F)(F)c1c(-c2ccc3c(ccn3-c3cccnc3)c2)ccn2c(CC3CC3)nnc12", "test system": "human liver microsomes", "conditions": "5 µM, 15 min", "quantity": "compound metabolized", "value": "22%"}
{"Structure (SMILES)": "Cc1ccc(Oc2ccc(-c3ccn4c(CC5CC5)nnc4c3C(F)(F)F)cc2F)c(C)n1", "test system": "male Sprague-Dawley rat, plasma", "conditions": "subcutaneous, 10 mg/kg, 4 h, single dose", "quantity": "concentration", "value": "59 ng/mL"}
{"note": "Excerpt of the above (further values, each from its own experiment):"}
{"Structure (SMILES)": "FC(F)(F)c1c(-c2ccc(N3CCNCC3)c(Cl)c2)ccn2c(CC3CC3)nnc12", "test system": "human liver microsomes", "conditions": "5 µM, 15 min", "quantity": "compound metabolized", "value": "8%"}
